Results from different studies.
Compare with care: the assays were run in different laboratories.
Chain of UniProt Q15303 (whole entry, looked up): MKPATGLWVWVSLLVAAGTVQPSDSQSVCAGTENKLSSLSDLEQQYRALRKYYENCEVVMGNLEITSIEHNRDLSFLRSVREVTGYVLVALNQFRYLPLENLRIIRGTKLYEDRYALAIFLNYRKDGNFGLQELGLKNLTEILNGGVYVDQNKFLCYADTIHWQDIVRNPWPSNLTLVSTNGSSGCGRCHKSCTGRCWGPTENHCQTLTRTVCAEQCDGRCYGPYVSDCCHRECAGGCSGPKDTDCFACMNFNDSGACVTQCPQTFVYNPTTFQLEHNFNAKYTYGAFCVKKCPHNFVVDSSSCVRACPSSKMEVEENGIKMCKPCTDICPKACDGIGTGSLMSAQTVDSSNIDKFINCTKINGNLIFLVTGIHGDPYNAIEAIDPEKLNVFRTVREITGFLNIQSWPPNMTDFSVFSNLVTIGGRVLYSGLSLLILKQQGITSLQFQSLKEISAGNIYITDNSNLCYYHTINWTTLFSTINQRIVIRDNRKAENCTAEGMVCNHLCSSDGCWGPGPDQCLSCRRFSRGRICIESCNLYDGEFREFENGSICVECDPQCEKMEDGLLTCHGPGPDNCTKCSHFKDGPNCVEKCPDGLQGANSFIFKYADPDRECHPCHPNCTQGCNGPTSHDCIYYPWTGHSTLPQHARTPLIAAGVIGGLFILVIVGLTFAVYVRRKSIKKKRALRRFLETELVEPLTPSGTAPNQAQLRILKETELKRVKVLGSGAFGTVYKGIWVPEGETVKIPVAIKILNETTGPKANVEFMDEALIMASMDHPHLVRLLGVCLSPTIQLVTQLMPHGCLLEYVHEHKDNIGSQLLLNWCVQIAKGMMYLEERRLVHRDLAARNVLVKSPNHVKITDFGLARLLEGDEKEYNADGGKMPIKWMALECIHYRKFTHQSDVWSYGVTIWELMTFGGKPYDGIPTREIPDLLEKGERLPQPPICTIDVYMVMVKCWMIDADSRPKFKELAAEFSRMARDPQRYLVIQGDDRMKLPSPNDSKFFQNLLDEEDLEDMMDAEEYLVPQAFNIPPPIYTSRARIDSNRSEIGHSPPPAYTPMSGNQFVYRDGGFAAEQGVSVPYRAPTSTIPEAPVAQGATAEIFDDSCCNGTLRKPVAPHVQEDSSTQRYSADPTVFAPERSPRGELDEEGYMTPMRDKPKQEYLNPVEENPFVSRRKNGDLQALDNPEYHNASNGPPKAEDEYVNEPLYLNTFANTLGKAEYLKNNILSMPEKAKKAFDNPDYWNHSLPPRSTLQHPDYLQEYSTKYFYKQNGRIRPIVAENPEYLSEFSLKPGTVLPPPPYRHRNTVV
Chain of UniProt Q99558 (whole entry, looked up): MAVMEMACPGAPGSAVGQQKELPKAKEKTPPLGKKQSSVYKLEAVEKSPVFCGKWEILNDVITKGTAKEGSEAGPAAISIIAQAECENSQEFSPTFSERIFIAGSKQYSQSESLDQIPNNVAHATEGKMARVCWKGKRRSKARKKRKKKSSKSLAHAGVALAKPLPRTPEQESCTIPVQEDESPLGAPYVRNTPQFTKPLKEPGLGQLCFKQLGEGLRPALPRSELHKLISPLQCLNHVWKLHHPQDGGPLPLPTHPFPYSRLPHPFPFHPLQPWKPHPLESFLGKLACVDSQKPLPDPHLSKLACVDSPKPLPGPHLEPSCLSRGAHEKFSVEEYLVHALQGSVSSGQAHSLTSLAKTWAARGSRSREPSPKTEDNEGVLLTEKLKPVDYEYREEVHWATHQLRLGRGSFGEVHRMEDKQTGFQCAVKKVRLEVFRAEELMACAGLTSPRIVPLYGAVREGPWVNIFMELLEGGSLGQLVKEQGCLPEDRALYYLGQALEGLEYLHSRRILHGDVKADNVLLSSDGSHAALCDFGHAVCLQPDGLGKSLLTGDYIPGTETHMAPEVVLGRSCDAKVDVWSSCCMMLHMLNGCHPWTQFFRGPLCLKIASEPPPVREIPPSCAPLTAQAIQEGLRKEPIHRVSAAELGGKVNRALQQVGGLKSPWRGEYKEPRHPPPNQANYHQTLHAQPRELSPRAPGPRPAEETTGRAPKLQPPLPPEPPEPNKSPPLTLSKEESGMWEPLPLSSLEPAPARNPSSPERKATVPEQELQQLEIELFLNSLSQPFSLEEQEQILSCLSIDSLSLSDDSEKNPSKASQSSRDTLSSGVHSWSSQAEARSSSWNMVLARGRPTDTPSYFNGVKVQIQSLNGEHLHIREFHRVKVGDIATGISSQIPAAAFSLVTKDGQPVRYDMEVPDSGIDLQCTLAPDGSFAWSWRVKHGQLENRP
Chain of UniProt Q13233 (whole entry, looked up): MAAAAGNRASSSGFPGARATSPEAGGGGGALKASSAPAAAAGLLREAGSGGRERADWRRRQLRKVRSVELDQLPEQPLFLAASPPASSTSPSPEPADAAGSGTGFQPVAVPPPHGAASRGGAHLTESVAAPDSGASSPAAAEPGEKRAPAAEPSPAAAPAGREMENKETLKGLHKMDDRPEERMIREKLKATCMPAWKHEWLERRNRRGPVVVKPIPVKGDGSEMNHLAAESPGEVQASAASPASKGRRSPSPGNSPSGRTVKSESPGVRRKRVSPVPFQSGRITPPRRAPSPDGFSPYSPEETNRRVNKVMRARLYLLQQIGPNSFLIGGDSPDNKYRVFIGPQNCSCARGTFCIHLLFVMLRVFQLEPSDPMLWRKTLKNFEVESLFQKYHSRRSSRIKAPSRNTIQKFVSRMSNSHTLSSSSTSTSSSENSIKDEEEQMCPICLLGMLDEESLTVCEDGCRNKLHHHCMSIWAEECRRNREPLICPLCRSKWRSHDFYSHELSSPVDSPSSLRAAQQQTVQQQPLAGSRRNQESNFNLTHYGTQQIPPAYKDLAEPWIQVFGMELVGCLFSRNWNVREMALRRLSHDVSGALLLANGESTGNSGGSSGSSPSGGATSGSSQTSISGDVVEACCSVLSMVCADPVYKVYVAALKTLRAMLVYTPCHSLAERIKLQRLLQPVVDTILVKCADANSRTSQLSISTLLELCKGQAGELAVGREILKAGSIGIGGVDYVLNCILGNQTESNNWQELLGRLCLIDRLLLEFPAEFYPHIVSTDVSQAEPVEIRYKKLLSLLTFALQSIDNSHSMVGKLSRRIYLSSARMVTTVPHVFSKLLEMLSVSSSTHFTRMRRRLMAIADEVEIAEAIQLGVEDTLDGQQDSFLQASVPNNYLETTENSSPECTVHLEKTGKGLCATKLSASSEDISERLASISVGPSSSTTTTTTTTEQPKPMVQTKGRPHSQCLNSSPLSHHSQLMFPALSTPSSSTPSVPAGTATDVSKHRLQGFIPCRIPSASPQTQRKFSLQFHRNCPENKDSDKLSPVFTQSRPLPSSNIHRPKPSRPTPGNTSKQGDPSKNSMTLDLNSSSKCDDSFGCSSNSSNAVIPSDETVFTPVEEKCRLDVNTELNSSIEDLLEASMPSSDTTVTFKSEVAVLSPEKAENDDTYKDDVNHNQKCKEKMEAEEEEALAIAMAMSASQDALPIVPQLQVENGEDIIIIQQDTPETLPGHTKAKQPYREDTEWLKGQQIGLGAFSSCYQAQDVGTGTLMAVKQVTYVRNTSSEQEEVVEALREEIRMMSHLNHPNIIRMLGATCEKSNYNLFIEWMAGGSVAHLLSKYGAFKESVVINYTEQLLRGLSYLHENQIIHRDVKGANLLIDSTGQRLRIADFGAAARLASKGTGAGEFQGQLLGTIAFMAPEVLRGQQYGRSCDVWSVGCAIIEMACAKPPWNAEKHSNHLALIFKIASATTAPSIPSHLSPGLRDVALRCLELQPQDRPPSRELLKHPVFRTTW
Chain of UniProt Q9BYT3 (whole entry, looked up): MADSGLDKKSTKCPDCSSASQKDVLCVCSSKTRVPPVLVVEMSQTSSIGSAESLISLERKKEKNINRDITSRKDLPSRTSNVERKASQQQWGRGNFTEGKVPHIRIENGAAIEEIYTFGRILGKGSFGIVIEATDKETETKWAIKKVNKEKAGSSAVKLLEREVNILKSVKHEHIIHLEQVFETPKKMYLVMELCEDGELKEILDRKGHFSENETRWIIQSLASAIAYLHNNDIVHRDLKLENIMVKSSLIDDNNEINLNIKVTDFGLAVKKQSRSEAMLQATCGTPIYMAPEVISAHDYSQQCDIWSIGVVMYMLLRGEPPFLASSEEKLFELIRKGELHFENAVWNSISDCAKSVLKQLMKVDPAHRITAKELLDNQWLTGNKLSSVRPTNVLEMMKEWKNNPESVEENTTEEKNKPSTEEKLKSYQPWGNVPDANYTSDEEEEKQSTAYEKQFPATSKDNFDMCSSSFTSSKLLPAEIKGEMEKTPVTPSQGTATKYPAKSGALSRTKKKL
Chain of UniProt Q9HBY8 (whole entry, looked up): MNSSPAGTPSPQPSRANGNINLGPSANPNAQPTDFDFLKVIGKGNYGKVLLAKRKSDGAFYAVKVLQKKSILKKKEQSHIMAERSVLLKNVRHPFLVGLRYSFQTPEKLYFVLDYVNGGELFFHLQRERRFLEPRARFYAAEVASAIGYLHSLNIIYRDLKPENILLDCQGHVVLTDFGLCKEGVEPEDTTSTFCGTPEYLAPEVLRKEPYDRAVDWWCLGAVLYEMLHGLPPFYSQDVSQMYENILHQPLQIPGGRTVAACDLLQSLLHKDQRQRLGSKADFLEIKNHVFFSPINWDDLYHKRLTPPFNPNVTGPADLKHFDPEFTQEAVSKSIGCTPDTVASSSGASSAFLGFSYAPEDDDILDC

SMILES | target or system | assay | test system | setting | measurement | result
CC1=C(Cn2cc(CN)nn2)C(=O)c2ccccc2C1=O | Schistosoma mansoni | parasite growth |  | 72 h, larva | IC50 | 0.81 µM
C=CC(=O)N1CCC(COCC(=O)N2CCN(c3nc(-c4cnc(N)nc4C(F)F)nc(N4CCOC[C@@H]4C)n3)CC2)CC1 | MAP3K14 (Homo sapiens, UniProt Q99558) | binding, competition with immobilised ligand |  | 1 µM | remaining binding | 100%
O=C(Nc1cccc2c(=O)cc(-c3nnn[nH]3)oc12)c1ccc(OCCCCc2ccccc2)cc1 | Trypanosoma cruzi | parasite growth, absorbance | Vero, TULAHUEN | 96 h, intracellular, amastigote | IC50 | 84.8 µM
CNc1ncc2c(/C=C/C(=O)N3CCC(OC)CC3)nn(Cc3cccc(C(F)(F)F)c3)c2n1 | SGK2 (Homo sapiens, UniProt Q9HBY8) | enzyme activity, inhibitor, radiometric |  | 1 µM | remaining activity | 104%
O=C(Cn1ccnc1[N+](=O)[O-])NCc1ccccc1 | Trypanosoma cruzi | parasite growth, absorbance | Vero, TULAHUEN | 96 h, intracellular, amastigote | IC50 | 2.43 µM
C[C@@H](O[C@H]1OCCN(Cc2n[nH]c(=O)[nH]2)[C@H]1c1ccc(F)cc1)c1cc(C(F)(F)F)cc(C(F)(F)F)c1 | Human immunodeficiency virus 1 | viral replication, inhibitor, ELISA | human PBMC, NL43 |  | IC50 | 8 µM
CCCCC(=O)Nc1ccc(-c2ccc3ncn(CCC)c(=O)c3c2)cn1 | MAP3K1 (Homo sapiens, UniProt Q13233) | binding, competition with immobilised ligand |  | 0.5 µM | remaining binding | 100%
COc1cc(-c2cncc3c2CN(C)Cc2cc(N4CCNCC4)ccc2-3)cc(OC)c1OC | STK33 (Homo sapiens, UniProt Q9BYT3) | enzyme activity, inhibitor |  | 1 µM | remaining activity | 111%
CC1=C(Cn2cc(CN3CCOCC3)nn2)C(=O)c2ccccc2C1=O | Schistosoma mansoni | parasite growth |  | 72 h, larva | IC50 | 0.98 µM
CO[C@@]1(NC(=O)C2SC(=C(C(N)=O)C(=O)O)S2)C(=O)N2C(C(=O)O)=C(CSc3nnnn3C)CS[C@@H]21 (stereo partly drawn) | Trypanosoma cruzi | parasite growth, absorbance | Vero, TULAHUEN | 96 h, intracellular, amastigote | IC50 | > 200 µM
COC(=O)Nc1nc2ccc(C(=O)c3ccccc3)cc2[nH]1 | Cryptococcus neoformans | microbial growth, broth dilution |  | 72 h, clinical isolate | IC50 | 1.25 µM
Cc1cc([C@@H](C)Nc2ccccc2C(=O)O)c2nc(N3CCC(F)(F)CC3)c(C#N)c(=O)n2c1 | ERBB4 (Homo sapiens, UniProt Q15303) | binding, competition with immobilised ligand |  | 10 µM | remaining binding | 100%
Cc1noc(NS(=O)(=O)c2ccc(N=NN(C)O)cc2)c1C |  | ABTS scavenging |  | 180 µg/mL | inhibition | 82.6%
CC[C@]1(O)C[C@@H]2CN(CCc3c([nH]c4ccccc34)[C@@](C(=O)OC)(c3cc4c(cc3OC)N(C)[C@H]3[C@@](O)(C(=O)OC)[C@H](OC(C)=O)[C@]5(CC)C=CCN6CC[C@]43[C@@H]65)C2)C1 | Trypanosoma cruzi | parasite growth, absorbance | Vero, TULAHUEN | 96 h, intracellular, amastigote | IC50 | 0.16 µM
O=C(O)/C=C/c1ccc(O)c(O)c1 | Human immunodeficiency virus 1 | viral replication | TZM-bl, BAL | 48 h | IC50 | > 100 µM
Cc1cc(CCCOc2c(C)cc(-c3noc(C(F)(F)F)n3)cc2C)on1 | Enterovirus | cytopathic effect | HeLa |  | IC50 | 3.3 µM
COc1cc(-c2oc3cc(O)cc(O)c3c(=O)c2O)ccc1O | Human immunodeficiency virus 1 | viral replication | TZM-bl, BAL | 48 h | IC50 | 2.22 µM
O=C(Cn1ccnc1[N+](=O)[O-])NCc1ccccc1 | Trypanosoma cruzi | parasite growth | MRC-5 SV2, TULAHUEN | intracellular, amastigote | IC50 | 2.11 µM
